{"data": "Assay results of several laboratories", "note": "A part holds a random share of what one study measured."}
{"data": "Study 1", "target": "Histone acetyltransferase KAT6A, both winged helices, GST fusion (KAT6A, Homo sapiens, UniProt Q92794, residues 1-181)", "technique": "protein binding microarray", "molecule type": "double-stranded DNA, one strand shown", "matrix": "in vitro", "concentration": "not given", "notes": "8-mer, flanks averaged, mean of 2 arrays, mostly near background", "baseline": "not given", "reading": "higher = stronger binding", "Construct (chain)": "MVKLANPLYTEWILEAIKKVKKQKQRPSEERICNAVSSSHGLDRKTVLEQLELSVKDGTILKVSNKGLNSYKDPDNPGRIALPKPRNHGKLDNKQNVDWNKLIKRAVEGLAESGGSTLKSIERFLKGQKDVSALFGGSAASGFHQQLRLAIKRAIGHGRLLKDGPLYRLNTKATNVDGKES"}
{"Strand": "ATGACCGG", "E-score": 0.0553}
{"Strand": "AGAAGTAA", "E-score": -0.104}
{"Strand": "AGCGGGTC", "E-score": 0.238}
{"Strand": "AATCTTAG", "E-score": -0.155}
{"Strand": "CGTGCGCC", "E-score": 0.229}
{"Strand": "CATTTGCG", "E-score": 0.119}
{"Strand": "GGATCAAA", "E-score": -0.0823}
{"Strand": "AAGTAGGA", "E-score": -0.217}
{"Strand": "ACTGGCAT", "E-score": -0.25}
{"Strand": "CCAAATCC", "E-score": -0.196}
{"Strand": "GGGGTCGA", "E-score": -0.127}
{"Strand": "CTTTCCTC", "E-score": -0.147}
{"Strand": "AAAGAGCT", "E-score": -0.17}
{"Strand": "CGCTACCC", "E-score": 0.136}
{"Strand": "CGTGTCAG", "E-score": 0.0513}
{"Strand": "CTGTTAAA", "E-score": -0.0484}
{"Strand": "TCTAGGAA", "E-score": -0.229}
{"Strand": "AGTTATGG", "E-score": -0.165}
{"Strand": "CTCTAGTC", "E-score": -0.0847}
{"Strand": "GTCACCTA", "E-score": -0.0605}
{"Strand": "CAGAGACA", "E-score": -0.0964}
{"data": "Study 2", "target": "Prothrombin, mature alpha-thrombin (F2, Homo sapiens, UniProt P00734)", "technique": "aptamer microarray, sandwich", "molecule type": "DNA with 2'F-ANA", "matrix": "in vitro", "concentration": "200 nM", "notes": "whole 15-mer aptamer, many near background", "added": "Cy3 exosite-II aptamer, 400 nM", "reading": "higher = stronger binding", "strand": "GGTTGGTGTGGTTGG"}
{"Modification": "2'F-ANA at 1 2 3 6 7 8 12 14 15", "mean fluorescence intensity": "97.1 a.u."}
{"Modification": "2'F-ANA at 3 4 5 6 8 10 12 13", "mean fluorescence intensity": "49.9 a.u."}
{"Modification": "2'F-ANA at 3 4 5 6 8 9 10 11 13 14 15", "mean fluorescence intensity": "85.7 a.u."}
{"Modification": "2'F-ANA at 1 5 9 11 13 15", "mean fluorescence intensity": "48.9 a.u."}
{"Modification": "2'F-ANA at 2 3 6 7 9 10 11 12 14 15", "mean fluorescence intensity": "233 a.u."}
{"Modification": "2'F-ANA at 1 2 4 5 6 8 10 11 14", "mean fluorescence intensity": "53.6 a.u."}
{"Modification": "2'F-ANA at 9 12", "mean fluorescence intensity": "950 a.u."}
{"Modification": "2'F-ANA at 4 5 6 7 8 11 12 14 15", "mean fluorescence intensity": "49.4 a.u."}
{"Modification": "2'F-ANA at 1 3 5 9 12", "mean fluorescence intensity": "122 a.u."}
{"Modification": "2'F-ANA at 2 3 5 6 7 8 10 12 13", "mean fluorescence intensity": "52.9 a.u."}
{"Modification": "2'F-ANA at 1 3 4 5 8 13", "mean fluorescence intensity": "49.7 a.u."}
{"Modification": "2'F-ANA at 1 4 7 8 9 10 12 13", "mean fluorescence intensity": "69.9 a.u."}
{"Modification": "2'F-ANA at 3 4 7 11 13 15", "mean fluorescence intensity": "497 a.u."}
{"Modification": "2'F-ANA at 10 11", "mean fluorescence intensity": "155 a.u."}
{"Modification": "2'F-ANA at 5 7 12 13 14", "mean fluorescence intensity": "48.7 a.u."}
{"Modification": "2'F-ANA at 2 3 4 5 6 8 13", "mean fluorescence intensity": "82.2 a.u."}
{"data": "Study 3", "target": "RNA binding protein fox-1 homolog 2, RRM domain, GST-SBP tag (RBFOX2, Homo sapiens, UniProt O43251-10, residues 100-194)", "technique": "RNA Bind-n-Seq", "molecule type": "RNA", "matrix": "in vitro", "concentration": "365 nM", "notes": "natural RNA segment, single round, ends assumed", "baseline": "no-protein control", "reading": "higher = stronger binding", "all sequences stand within": "GGGAGUUCUACAGUCCGACGAUC … UGGAAUUCUCGGGUGCCAA", "Target sequence (chain)": "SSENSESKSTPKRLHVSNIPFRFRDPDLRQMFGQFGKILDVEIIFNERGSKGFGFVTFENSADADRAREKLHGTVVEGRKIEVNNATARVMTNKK"}
{"Strand": "CAUCCUCCUCACAUGAAUGUCAACCCACAACAACCAGCAUAGCAAAUGAAAGAAAGGAAUUGUAUUUACCUUUUAUAAUUAUUAUUAGUGUGGGUAUGGCUAAUGAGUUC", "RBNS enrichment (R)": 0.784}
{"Strand": "AAGAAGGAUACUGUGUAGUUGAACUAAGGCUCUUUCCAGGCCGGGCUUGCAUCCUGUUGUGUAUUCUUUGUAUGCUGCUGACUAUAUCCCUAUUCUGCUGUAGGGGACUA", "RBNS enrichment (R)": 1.25}
{"Strand": "UUUUUUGAUUUUUGCUGACUUAAAAAGGAUUAAUUUGGGCAGACAUUAUAAAAAGGAAAGGGUUAAUAUAUUUUUGGACUCUGUAGGACAAAAGAGAACUGGUUAACCUU", "RBNS enrichment (R)": 0.656}
{"Strand": "GGAGAGCUUCAGUGGCACCUCAAAACCCACCCUUCGAGAUCUGUCCAAAGACAGUCUCAGAAAGCUGCACUGCCCACCGGCUCAGCUUUCAUUCAAAAAGGCUUCCAAGG", "RBNS enrichment (R)": 0.255}
{"Strand": "CGGAGGGCACAGUAGGAGCUGCUGGGAAGCGCCUUCCGUUCUGAUCCCUCACAUCCUGUCACGGCAGGGGCUGUGCAGGGUACUGCCCUCCCUCUGCCCAGCAGCCCCAU", "RBNS enrichment (R)": 0.217}
{"Strand": "AUUGUGUUUUUAUGCUGUUUUAUACUUUUUUAUGAGUUAUGAUAGCAGCAAUUAAGUUGUUUGUAUUUUGCUUAACUAAAACAAAAAUGCUUUUAUCUUGCUAUAGAAUA", "RBNS enrichment (R)": 1.01}
{"Strand": "CAGCCCCAGCCCCAGCUCCAGCCCUGAGGACAGCUCUGAUGGGAGAGCUGGGCCCCCUGAGCCCACUGGGUCUUCAGGGUGCACUGGAAGCUGGUGUUCGCUGUCCCCUG", "RBNS enrichment (R)": 0.338}
{"Strand": "AGGAGUGGGGUGCUGUCUUCCACUGACACCCAGGUCCAGAAUCCUUGGUCUUGAGCCCCUGUCCUUUCUCCAUCCCCCAUGGAAAUGUAGUUCUUUUCUGGCCCUUUCCC", "RBNS enrichment (R)": 0.298}
{"Strand": "GGAUCAUCUCCACAGCUGUGACCAGAAAUCCUCACGAAGGGCACAUUUCUAGGUAGACCCAAAUGGAACUAAAUCAUGUCACAAGCUGAGAGAAUUACUGAGUUCCUCUC", "RBNS enrichment (R)": 0.304}
{"Strand": "UAUUAAAAACUUAUUUUCCCUCGGGUUUGUUCUCGUUUUAUGUUUUUGUUGUUGUUGUUUUGUUAGCUUUCCUACUUCCACUGAGUAGCAUUUUGUAGAAUAAAAUUAAU", "RBNS enrichment (R)": 0.664}
{"Strand": "CAUGGUAAAGCUCCUCUCGCUUUCCUCCUGAGGCUACACCCAUGCGUCUCUAGGAACUGGUCACAAAAGUCAUGGUGCCUGCAUCCCUGCCAAGCCCCCCUGACCCUCUC", "RBNS enrichment (R)": 1.56}
{"Strand": "UUUUAACGACACCCCUACUCCGUAUCCCUCCCCAUCCCAUGCUGCCAACUUCUAACCACAAUAGUGACUCUGUGCUUGUCUGUUUAGUUCUGUGUGUAAAUGAAAUGUGG", "RBNS enrichment (R)": 0.685}
{"data": "Study 4", "target": "Sal-like protein 4, full length isoform B (SALL4, Homo sapiens, UniProt Q9UJQ4-2, residues 1-616)", "technique": "universal PBM", "molecule type": "double-stranded DNA, one strand shown", "matrix": "in vitro", "concentration": "not given", "notes": "8-mer, flanks averaged, mean of replicates", "reading": "higher = stronger binding", "Construct (chain)": "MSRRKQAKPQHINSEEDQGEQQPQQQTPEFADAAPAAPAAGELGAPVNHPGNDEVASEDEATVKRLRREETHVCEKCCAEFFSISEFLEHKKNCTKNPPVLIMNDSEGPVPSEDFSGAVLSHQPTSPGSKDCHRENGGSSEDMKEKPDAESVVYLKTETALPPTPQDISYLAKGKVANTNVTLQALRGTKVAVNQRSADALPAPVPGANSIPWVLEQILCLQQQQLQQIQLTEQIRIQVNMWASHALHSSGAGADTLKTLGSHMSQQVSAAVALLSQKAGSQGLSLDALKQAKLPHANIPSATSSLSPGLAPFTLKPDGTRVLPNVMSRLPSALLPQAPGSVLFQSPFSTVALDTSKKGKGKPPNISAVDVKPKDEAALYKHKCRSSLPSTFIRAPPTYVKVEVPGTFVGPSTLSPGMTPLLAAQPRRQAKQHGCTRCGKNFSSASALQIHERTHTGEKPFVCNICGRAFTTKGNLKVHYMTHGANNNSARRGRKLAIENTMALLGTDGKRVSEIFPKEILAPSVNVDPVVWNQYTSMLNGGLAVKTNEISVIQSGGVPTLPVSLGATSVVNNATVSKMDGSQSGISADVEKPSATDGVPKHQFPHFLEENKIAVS"}
{"Strand": "ATTCGTTA", "E-score": 0.185}
{"Strand": "GAATGCGA", "E-score": 0.0436}
{"Strand": "GGGCTACC", "E-score": -0.335}
{"Strand": "TGCCTACA", "E-score": 0.00704}
{"Strand": "CCTGGTAC", "E-score": -0.201}
{"Strand": "CTGATTGA", "E-score": 0.00568}
{"Strand": "ACGTACAA", "E-score": 0.11}
{"Strand": "TACAGCCA", "E-score": -0.0454}
{"Strand": "GGTGCCAA", "E-score": -0.171}
{"Strand": "CATAGTTC", "E-score": 0.0103}
{"Strand": "CCTGGTCC", "E-score": -0.364}
{"Strand": "CGACCTAG", "E-score": -0.102}
{"Strand": "CATATGGG", "E-score": -0.00936}
{"Strand": "ACAAGGTG", "E-score": 0.00402}
{"Strand": "GGAGTTTA", "E-score": 0.16}
{"Strand": "CAGGCCGA", "E-score": -0.167}
{"Strand": "AAATTTAT", "E-score": 0.402}
{"Strand": "ACGGGCAG", "E-score": -0.0736}
{"data": "Study 5", "target": "PABPC1L2, full length, GST fusion (mouse, UniProt A0ABA7IW68)", "technique": "RNAcompete", "molecule type": "RNA", "matrix": "in vitro", "concentration": "20 nM", "notes": "7-mer, probes averaged, single round", "baseline": "mean of 7-mers", "reading": "higher = stronger binding", "Target sequence (chain)": "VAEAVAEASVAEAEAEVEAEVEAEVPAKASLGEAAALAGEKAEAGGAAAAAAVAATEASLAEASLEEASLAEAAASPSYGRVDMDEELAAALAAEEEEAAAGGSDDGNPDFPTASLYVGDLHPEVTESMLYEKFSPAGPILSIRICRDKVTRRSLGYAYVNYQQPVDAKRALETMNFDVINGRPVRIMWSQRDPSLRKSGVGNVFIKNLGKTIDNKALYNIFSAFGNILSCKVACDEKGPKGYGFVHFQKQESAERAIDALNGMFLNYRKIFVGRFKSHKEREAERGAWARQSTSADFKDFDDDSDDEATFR"}
{"Strand": "CGGUUUC", "7-mer Z-score": -0.385}
{"Strand": "UGAUCUG", "7-mer Z-score": -0.222}
{"Strand": "CCUAGAU", "7-mer Z-score": -0.171}
{"Strand": "UCCUCCG", "7-mer Z-score": -0.298}
{"Strand": "AGUCUAU", "7-mer Z-score": -0.333}
{"Strand": "AAGCGCC", "7-mer Z-score": 0.0261}
{"Strand": "CUAGAGG", "7-mer Z-score": 0.0605}
{"Strand": "GGCCUUA", "7-mer Z-score": -0.206}
{"Strand": "CCUCGUA", "7-mer Z-score": -0.354}
{"Strand": "UACGCUG", "7-mer Z-score": -0.38}
{"Strand": "GAGAUUG", "7-mer Z-score": -0.0554}
{"Strand": "UCGAUUU", "7-mer Z-score": -0.322}
{"Strand": "CGAAUUC", "7-mer Z-score": -0.229}
{"Strand": "ACCACCU", "7-mer Z-score": -0.215}
{"Strand": "CGAACGU", "7-mer Z-score": -0.32}
{"Strand": "ACGCAGU", "7-mer Z-score": -0.0863}
{"Strand": "GGGCAUA", "7-mer Z-score": 0.283}
{"note": "Some of these lines once more (study 4):"}
{"Strand": "TGCCTACA", "E-score": 0.00704}
{"Strand": "CCTGGTAC", "E-score": -0.201}
{"Strand": "CTGATTGA", "E-score": 0.00568}
{"Strand": "ACGTACAA", "E-score": 0.11}
{"Strand": "TACAGCCA", "E-score": -0.0454}
{"Strand": "GGTGCCAA", "E-score": -0.171}
{"Strand": "CATAGTTC", "E-score": 0.0103}
{"Strand": "CCTGGTCC", "E-score": -0.364}
{"Strand": "CGACCTAG", "E-score": -0.102}
